Published values from different studies.
Lines come from different studies, so protocols differ. ± marks the error that the study gave.

SMILES | test | test system | setting | how to read | endpoint | result
CC(C)[C@H](NC(=O)CNC(=O)[C@H](CCC(N)=O)NC(=O)[C@H](C)N)C(=O)O | – | human | intravenous infusion, 15 mg/kg/h, 2 h infusion | – | subjects with serious adverse events | 0%
COc1cc(NC(=O)C(=O)c2c(C)n(Cc3ccc(Cl)cc3)c3ccc(C)cc23)ccn1 | – | cynomolgus monkey, both sexes, plasma | intravenous, 1 mg/kg | – | Vz | 18.6 L/kg
CC[C@@H](C)[C@@H](NC(=O)[C@@H](CCCCN)NC(=O)[C@H](NC(=O)[C@@H](Cc1c[nH]c2ccccc12)NC(=O)[C@@H](Cc1ccccc1)NC(=O)[C@@H](CCC(N)=O)NC(=O)[C@@H](CC(N)=O)NC(=O)[C@@H](CCCNC(=N)N)NC(=O)[C@@H](CCCNC(=N)N)NC(=O)[C@@H](CCSC)NC(=O)[C@@H](CCCCN)NC(=O)[C@@H](Cc1c[nH]c2ccccc12)NC(=O)[C@@H](CCCCN)NC(=O)[C@@H](CCCCN)NC(=O)CNC(=O)[C@@H](CCCCN)NC(=O)CNC(=O)[C@@H](CCC(N)=O)NC(=O)[C@@H](Cc1c[nH]cn1)NC(=O)[C@H](N)CCCNC(=N)N)[C@H](C)CC)C(=O)N[C@H](CCC(N)=O)C(=O)N[C@H](CCCNC(=N)N)C(=O)O | PAMPA | CF sputum layer | 2 mg/mL, 5 h, pH 7.4 | – | Papp | 2.55 ×10⁻⁶ cm/s
COC(=O)C[C@](O)(CCCC(C)(C)OC(C)=O)C(=O)O[C@@H]1C(OC)=C[C@]23CCCN2CCc2cc4c(cc2[C@H]13)OCO4 | – | CD1 mouse, lung | subcutaneous, 1 mg/kg, 2 h | – | tissue concentration | 90.9 ng/mL
CC[C@@H]1C[C@]1(NC(=O)[C@@H]1C[C@@]2(CN1C(=O)[C@@H](NC(=O)[C@@H](NC(=O)[C@@H]1CCCCN1C(C)C)C1CCCCC1)C(C)(C)C)C(C)(C)C21CCC1)C(=O)NS(=O)(=O)N1CCCC1 | – | human | oral, dose not given, added: ritonavir 100 mg | reference: without ritonavir | fold increase in exposure | ≤ 60 fold
COc1ccc(F)c2[nH]c(C(=O)N[C@@H](CC(C)C)C(=O)N[C@@H](C[C@@H]3CCNC3=O)C(=O)c3nc4ccccc4s3)cc12 | – | Jcl:ICR mice, female | intravenous, 2.0 mg/kg | – | half-life | ~0.5 h
CC[C@H](C)[C@H](N)C(=O)N[C@H](C(=O)N[C@@H](CO)C(=O)N[C@H](C(=O)N[C@H](C(=O)NCC(=O)N[C@@H](CC(=O)O)C(=O)N[C@@H](CC(C)C)C(=O)N[C@H](C(=O)N[C@@H](CCCCN)C(=O)N[C@@H](Cc1c[nH]c2ccccc12)C(=O)N[C@H](C(=O)N[C@H](C(=O)N[C@@H](CC(=O)O)C(=O)N[C@H](C(=O)N[C@H](C(=O)N[C@@H](CC(N)=O)C(=O)N[C@@H](CCCCN)C(=O)N[C@@H](Cc1ccccc1)C(=O)N[C@H](C(=O)N[C@@H](CCCCN)C(=O)N[C@@H](CCCCN)C(=O)O)[C@@H](C)O)C(C)C)[C@@H](C)O)[C@@H](C)CC)[C@@H](C)CC)C(C)C)[C@@H](C)CC)[C@@H](C)O)[C@@H](C)CC | circular dichroism | POPC vesicles | pH 7.5 | – | fractional helicity | 1
CC(C)(CCCC/C=C/CCCCCC(C)(C)C(=O)O)C(=O)O | – | beagle dog, plasma | 360 mg/kg, NOAEL dose, long-term GLP toxicity | – | Cmax | 570 µg/mL
O=P1(NCCCl)NCCCO1 (stereo not drawn) | – | rat, plasma | intravenous, 10 mg/kg CP, added: ketoconazole 10 mg/kg oral 50 min before | – | Cmax | 0.0693 ± 0.0222 µg/mL
CCCC[C@@H]1NC(=O)[C@H](Cc2ccc(O)cc2)NC(=O)[C@@H]2CCCN2C(=O)[C@H](CC(=O)O)NC(=O)[C@H](C)NC(=O)[C@H](Cc2ccccc2)NC(=O)[C@@H]2CSCCC(=O)N3CN(CN(C3)C(=O)CCSC[C@@H](C(=O)N[C@@H](C)C(N)=O)NC1=O)C(=O)CCSC[C@H](NC(C)=O)C(=O)N[C@@H](CC(C)(C)C)C(=O)N1CCC[C@H]1C(=O)N[C@@H](CCC(=O)O)C(=O)N[C@H](CCCCNC(=O)CCc1cn(CCOCCOCCOCCN(CCOCCOCCOCCC(=O)N[C@H]3CSCCC(=O)N4CN5CN(C4)C(=O)CCSC[C@H](NC(=O)[C@@H](CC(=O)O)NC(=O)[C@H](Cc4cccc6ccccc46)NC(=O)[C@@H]4CCCN4C3=O)C(=O)N[C@@H](CCSC)C(=O)N[C@@H](CCCCNC(=N)N)C(=O)N[C@@H](CC(=O)O)C(=O)N[C@@H](Cc3c[nH]c4ccccc34)C(=O)N[C@@H](CO)C(=O)N[C@@H]([C@@H](C)O)C(=O)N3CCC[C@H]3C(=O)N3C[C@H](O)C[C@H]3C(=O)N[C@@H](Cc3c[nH]c4ccccc34)C(=O)N[C@H](C(N)=O)CSCCC5=O)CCOCCOCCOCCn3cc(CCC(=O)NCCCC[C@H]4NC(=O)[C@H](CCC(=O)O)NC(=O)[C@@H]5CCCN5C(=O)[C@H](CC(C)(C)C)NC(=O)[C@@H](NC(C)=O)CSCCC(=O)N5CN6CN(C5)C(=O)CCSC[C@H](NC(=O)[C@H](Cc5ccc(O)cc5)NC(=O)[C@@H]5CCCN5C4=O)C(=O)N[C@@H](Cc4ccccc4)C(=O)N[C@@H](C)C(=O)N[C@@H](CC(=O)O)C(=O)N4CCC[C@H]4C(=O)N[C@@H](Cc4ccc(O)cc4)C(=O)N[C@@H](CCCC)C(=O)N[C@H](C(=O)N[C@@H](C)C(N)=O)CSCCC6=O)nn3)nn1)C(=O)N1CCC[C@H]1C(=O)N[C@@H](Cc1ccc(O)cc1)C(=O)N2 | – | cynomolgus monkey, plasma | intravenous, 1 mg/kg, infusion | – | half-life | 5.3 h
Cc1ccnc(-c2cc(C)ccn2)c1.O.[C-]#[O+].[C-]#[O+].[C-]#[O+].[Re+] | RP-HPLC C18 column, measured: MeCN adduct | MeCN:water 40:60, 0.1% TFA | isocratic elution | – | capacity factor | 7.1
O=C(c1ccc(F)cc1)C1CCN(C2Cc3c(cccc3OCC[18F])CC2O)CC1 (single isomer, unassigned; (-)) | – | Sprague-Dawley rat, male, pancreas | intravenous, dose not given, 30 min | – | tissue uptake | 1.2 ± 0.347 %ID/g
CC[C@H](C)[C@H](NC(=O)[C@H](C)NC(=O)[C@H](C)NC(=O)[C@H](CCC(N)=O)NC(=O)CNC(=O)[C@H](CC(C)C)NC(=O)[C@H](Cc1c[nH]cn1)NC(=O)[C@H](CCCCN)NC(=O)[C@H](C)NC(=O)CNC(=O)[C@H](CCCCN)NC(=O)[C@H](CCCNC(=N)N)NC(=O)[C@H](CC(C)C)NC(=O)[C@H](Cc1c[nH]c2ccccc12)NC(=O)[C@H](CCCCN)NC(=O)[C@H](CCCCN)NC(=O)[C@H](Cc1c[nH]c2ccccc12)NC(=O)CN)C(=O)N[C@@H](CCCCN)C(N)=O | – | zebrafish embryos | 1 h, 4, 28, 52 hpf | – | acute toxic concentration | 5 µg/mL
CC(C)C[C@@H](N)C(=O)NCC(=O)N[C@H](C)C(=O)N[C@H](CO)C(=O)N[C@H](Cc1c[nH]c2ccccc12)C(=O)N[C@H](Cc1c[nH]cn1)C(=O)N[C@H](CCCNC(=N)N)C(=O)N1CCC[C@@H]1C(=O)N[C@H](CC(=O)O)C(=O)N[C@H](CCCCN)C(=O)N[C@H](CS)C(=O)N[C@H](CS)C(=O)N[C@H](CC(C)C)C(=O)NCC(=O)N[C@H](Cc1ccc(O)cc1)C(=O)N[C@H](CCC(N)=O)C(=O)N[C@H](CCCCN)C(=O)N[C@H](CCCNC(=N)N)C(=O)N1CCC[C@@H]1C(=O)N[C@H](CC(C)C)C(=O)N1CCC[C@@H]1C(N)=O | LC-MS/MS | rat plasma extract | 500 ng/mL, 4 h, 8 °C, autosampler storage | – | measured concentration | 486 ± 4.6 ng/mL
CC[C@H](C)[C@H](NC(=O)[C@H](C)NC(=O)[C@H](CCCCN)NC(=O)[C@H](CC(C)C)NC(=O)[C@@H](N)Cc1ccccc1)C(=O)N[C@@H](CCCCN)C(=O)N[C@@H](CCCCN)C(=O)N[C@@H](Cc1ccccc1)C(=O)NCC(=O)N[C@@H](CCCCN)C(=O)N[C@@H](CCC(=O)O)C(=O)N[C@@H](Cc1ccccc1)C(=O)N[C@@H](CCCCN)C(=O)N[C@@H](CCCCN)C(=O)N[C@H](C(=O)NCC(=O)N[C@@H](C)C(=O)N[C@@H](CCCCN)C(=O)N[C@@H](CC(C)C)C(=O)N[C@@H](CCCCN)C(=O)O)[C@@H](C)CC | – | BALB/c mice | intraperitoneal, 64 mg/kg every 12 h for 5 days | reference: untreated | serum creatinine, BUN, ALT, ALP | no effect
CCCCCCCCCCCCCCC(=O)N[C@@H](CCCCN)C(=O)N[C@@H](CCCCN)C(=O)N[C@@H](CCCCN)C(=O)N[C@@H](CCCCN)C(N)=O | – | Galleria mellonella larvae | 50 mg/kg, 4 d | – | survival | 0%
O=c1cc(-c2ccccc2)oc2c(Br)c(O)c(O)c(O)c12 | – | C57BL/6 mouse, plasma | po, 150 mg/kg | – | Vz | 4350 ± 1920 mL
CC(C)C[C@@H]1NC(=O)[C@@H](Cc2c[nH]c3ccccc23)NC(=O)[C@H](CCCN)NC(=O)[C@@H](CO)NC(=O)[C@H](CCC(N)=O)NC(=O)[C@@H](CCC(=O)O)NC(=O)[C@H](CO)NC(=O)[C@@H](Cc2c[nH]c3ccccc23)NC1=O | haemolysis | – | 500 µM | – | haemolysis | 3%
CN(C)C(CNC(=O)Nc1cc(C(F)(F)F)ccc1N1CCOCC1)c1ccncc1 (stereo not drawn) | – | mouse, serum | intraperitoneal, 120 mg/kg single dose | – | phosphorus | 7.6 mg/dL
CC(C)C[C@H](NC(=O)[C@H](CCCCN)NC(=O)[C@H](CCC(=O)O)NC(=O)[C@H](C)NC(=O)[C@@H](NC(=O)[C@H](CCCCN)NC(=O)[C@H](CC(=O)O)NC(=O)[C@H](Cc1ccc(O)cc1)NC(=O)[C@H](Cc1ccccc1)NC(=O)[C@H](C)NC(=O)[C@H](CCCCN)NC(=O)[C@H](CC(C)C)NC(=O)[C@H](Cc1c[nH]c2ccccc12)NC(=O)[C@@H](N)CC(=O)O)C(C)C)C(=O)N[C@@H](CCCCN)C(=O)N[C@@H](CCC(=O)O)C(=O)N[C@@H](C)C(=O)N[C@@H](Cc1ccccc1)C(=O)N1CCC[C@H]1C(=O)N[C@@H](CC(=O)O)C(=O)N[C@@H](Cc1c[nH]c2ccccc12)C(=O)N[C@@H](C)C(=O)N[C@@H](CCCCN)C(=O)N[C@@H](C)C(=O)N[C@@H](C)C(=O)N[C@@H](Cc1ccc(O)cc1)C(=O)N[C@@H](CC(=O)O)C(=O)N[C@@H](CCCCN)C(=O)N[C@@H](C)C(=O)N[C@@H](C)C(=O)N[C@@H](CCC(=O)O)C(=O)N[C@@H](CCCCN)C(=O)N[C@@H](C)C(=O)N[C@@H](CCCCN)C(=O)N[C@@H](CCC(=O)O)C(=O)N[C@@H](C)C(=O)N[C@@H](C)C(=O)O | – | cynomolgus monkey female, plasma | intravenous infusion, 75 mg/kg every other day, day 27 | – | AUC(0-inf) | 7650 µg·h/mL
C[C@H]1N=C(c2ccccc2F)c2cc(Br)ccc2-n2cnc(C(=O)NCCS(=O)(=O)O)c21 | LC-MS/MS | Swiss Webster mouse, female, urine | intraperitoneal, 750 µg parent drug, 0 to 24 h | – | cumulative excretion | 0.4 ± 0.1%

A few entries again:
SMILES | test | test system | setting | how to read | endpoint | result
COc1ccc(F)c2[nH]c(C(=O)N[C@@H](CC(C)C)C(=O)N[C@@H](C[C@@H]3CCNC3=O)C(=O)c3nc4ccccc4s3)cc12 | – | Jcl:ICR mice, female | intravenous, 2.0 mg/kg | – | half-life | ~0.5 h
CC[C@H](C)[C@H](N)C(=O)N[C@H](C(=O)N[C@@H](CO)C(=O)N[C@H](C(=O)N[C@H](C(=O)NCC(=O)N[C@@H](CC(=O)O)C(=O)N[C@@H](CC(C)C)C(=O)N[C@H](C(=O)N[C@@H](CCCCN)C(=O)N[C@@H](Cc1c[nH]c2ccccc12)C(=O)N[C@H](C(=O)N[C@H](C(=O)N[C@@H](CC(=O)O)C(=O)N[C@H](C(=O)N[C@H](C(=O)N[C@@H](CC(N)=O)C(=O)N[C@@H](CCCCN)C(=O)N[C@@H](Cc1ccccc1)C(=O)N[C@H](C(=O)N[C@@H](CCCCN)C(=O)N[C@@H](CCCCN)C(=O)O)[C@@H](C)O)C(C)C)[C@@H](C)O)[C@@H](C)CC)[C@@H](C)CC)C(C)C)[C@@H](C)CC)[C@@H](C)O)[C@@H](C)CC | circular dichroism | POPC vesicles | pH 7.5 | – | fractional helicity | 1
CC(C)(CCCC/C=C/CCCCCC(C)(C)C(=O)O)C(=O)O | – | beagle dog, plasma | 360 mg/kg, NOAEL dose, long-term GLP toxicity | – | Cmax | 570 µg/mL
